Literature values that unrelated publications cite.
Lines come from different studies, so protocols differ.
Chain of UniProt Q9P0L2 (whole entry, looked up): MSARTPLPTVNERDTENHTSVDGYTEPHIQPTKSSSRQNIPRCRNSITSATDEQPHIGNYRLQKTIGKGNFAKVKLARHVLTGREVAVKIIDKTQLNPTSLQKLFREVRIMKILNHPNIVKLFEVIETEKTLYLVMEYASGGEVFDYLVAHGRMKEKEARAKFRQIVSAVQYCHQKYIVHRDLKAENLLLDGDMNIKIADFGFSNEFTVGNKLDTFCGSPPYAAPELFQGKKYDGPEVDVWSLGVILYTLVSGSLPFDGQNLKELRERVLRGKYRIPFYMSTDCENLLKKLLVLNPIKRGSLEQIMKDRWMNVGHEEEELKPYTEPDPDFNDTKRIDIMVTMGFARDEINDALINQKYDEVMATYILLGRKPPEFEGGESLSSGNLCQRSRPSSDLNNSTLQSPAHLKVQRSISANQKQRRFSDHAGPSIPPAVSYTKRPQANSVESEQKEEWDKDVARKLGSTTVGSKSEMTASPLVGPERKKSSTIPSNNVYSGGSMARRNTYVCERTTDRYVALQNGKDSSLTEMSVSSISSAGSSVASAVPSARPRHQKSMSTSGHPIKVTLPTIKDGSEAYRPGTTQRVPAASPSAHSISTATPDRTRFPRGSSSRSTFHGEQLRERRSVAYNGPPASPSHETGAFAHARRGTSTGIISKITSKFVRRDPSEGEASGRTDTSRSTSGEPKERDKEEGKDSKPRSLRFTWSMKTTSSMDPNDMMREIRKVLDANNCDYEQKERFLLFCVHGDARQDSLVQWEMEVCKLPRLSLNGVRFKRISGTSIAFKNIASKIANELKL

Structure (SMILES) = COC[C@H]1C[C@@H](c2ncc(-c3ccc4c(c3)COc3cc5c(ccc6nc([C@@H]7CC[C@H](C)N7C(=O)[C@@H](NC(=O)OC)C(C)C)[nH]c65)cc3-4)[nH]2)N(C(=O)[C@H](NC(=O)OC)c2ccccc2)C1; tested on = OATP1B1; how to read = literature maximum; endpoint = IC50; result = 1.8 µM
Structure (SMILES) = CN(C)C/C=C/C(=O)Nc1cc2c(Nc3ccc(F)c(Cl)c3)ncnc2cc1O[C@H]1CCOC1; tested on = ABCB1; system = A2780T; endpoint = IC50; result = 2 µM
Structure (SMILES) = CO/N=C(\C(=O)N[C@@H]1C(=O)N2C(C(=O)O)=C(CSc3nc(=O)c(=O)[nH]n3C)CS[C@H]12)c1csc(N)n1; tested on = CYP2J2; test = enzyme activity, inhibitor; endpoint = IC50; result = 27 µM
Structure (SMILES) = C=C(C)[C@@H]1CC[C@]2(C)CC[C@]3(C)[C@H](CC[C@@H]4[C@@]5(C)CC[C@H](O)C(C)(C)[C@@H]5CC[C@]43C)[C@@H]12; tested on = CYP2C11 (rat); test = inhibitor; system = rat liver microsomes; endpoint = IC50; result = > 100 µM
Structure (SMILES) = Cc1ccc(C)c(OCCCC(C)(C)C(=O)O)c1; tested on = OATP1B3 (SLCO1B3) OATP1B1; conditions = literature geometric mean; endpoint = IC50; result = 37.6 µM
Structure (SMILES) = OC(Cn1cncn1)(Cn1cncn1)c1ccc(F)cc1F; tested on = CYP2C18; test = transport activity, inhibitor; endpoint = IC50; result = 17 µM
Structure (SMILES) = C[C@H]1COCCN1c1nc(-c2cnc(N)cc2C(F)F)nc(N2CCOCC2)n1; tested on = ACHN; endpoint = GI50; result = 0.231 µM
Structure (SMILES) = CO[C@H]1/C=C/O[C@@]2(C)Oc3c(C)c(O)c4c(O)c(c(/C=N/N5CCN(C)CC5)c(O)c4c3C2=O)NC(=O)/C(C)=C\C=C\[C@H](C)[C@H](O)[C@@H](C)[C@@H](O)[C@@H](C)[C@H](OC(C)=O)[C@@H]1C; tested on = OATP1B1; how to read = literature minimum; endpoint = IC50; result = 0.22 µM
Structure (SMILES) = Nc1cc(C(F)(F)F)c(-c2nc(N3CCOCC3)nc(N3CCOCC3)n2)cn1; tested on = MARK1 (Homo sapiens, UniProt Q9P0L2); test = enzyme activity; conditions = 10 µM; how to read = relative to: untreated; endpoint = remaining activity; result = 75%
Structure (SMILES) = N[C@@H]1c2cccnc2[C@H](OC(=O)N2CCC(n3c(=O)[nH]c4ncccc43)CC2)CC[C@H]1c1cccc(F)c1F; tested on = CYP2B6 (human); system = human liver microsomes; endpoint = IC50; result = > 40 µM
Structure (SMILES) = COc1cc([C@H]2Oc3cc([C@H]4Oc5cc(O)cc(O)c5C(=O)[C@@H]4O)ccc3O[C@@H]2CO)ccc1O; tested on = human OATP1B1 and OATP1B3; test = inhibitor; endpoint = IC50; result = 2.2 to 9.7 µM
Structure (SMILES) = CCC(C)n1ncn(-c2ccc(N3CCN(c4ccc(OCC5COC(Cn6cncn6)(c6ccc(Cl)cc6Cl)O5)cc4)CC3)cc2)c1=O (centres unmarked); tested on = OATP1B3 (SLCO1B3) OATP1B3; conditions = literature geometric mean; endpoint = IC50; result = 1.69 µM
Structure (SMILES) = COC(=O)N[C@H](C(=O)N1CCC[C@H]1c1nc(-c2ccc3c(c2)O[C@@H](c2ccccc2)n2c-3cc3cc(-c4c[nH]c([C@@H]5CCCN5C(=O)[C@@H](NC(=O)OC)C(C)C)n4)ccc32)c[nH]1)C(C)C; tested on = human CYP3A4; test = inhibitor; system = human liver microsomes; endpoint = IC50; result = > 100 µM
Structure (SMILES) = CS(=O)(=O)CCNCc1ccc(-c2ccc3ncnc(Nc4ccc(OCc5cccc(F)c5)c(Cl)c4)c3c2)o1; tested on = P-glycoprotein human; test = efflux transport, inhibitor; system = MDCKII-MDR1; conditions = with: [3H]digoxin; endpoint = IC50; result = 3.9 µM
Structure (SMILES) = CC(O)c1cc(C(=O)N[C@@H](C)Cn2ccc(-c3ccc(C#N)c(Cl)c3)n2)[nH]n1 (some centres unmarked); tested on = OATP1B3; how to read = literature maximum; endpoint = IC50; result = 39.3 µM
Structure (SMILES) = CC1(C)S[C@@H]2[C@H](NC(=O)[C@H](N)c3ccccc3)C(=O)N2[C@H]1C(=O)O; tested on = Escherichia coli; system = clinical isolate RKI-No_97/15; endpoint = MIC; result = > 16 µg/mL
Structure (SMILES) = C=CC(=O)N1CCC[C@@H](n2nc(-c3ccc(Oc4ccccc4)cc3)c3c(N)ncnc32)C1; tested on = ABCB1 (human); system = K562/AO2; endpoint = IC50; result = > 2.5 µM
Structure (SMILES) = CNCc1cn(S(=O)(=O)c2cccc(F)c2)c(-c2ccc(F)cc2F)c1OC; tested on = MATE2-K; test = transporter uptake; endpoint = IC50; result = 0.58 µM
Structure (SMILES) = Cc1cccc(-c2[nH]c(CNc3ccccc3F)nc2-c2ccc3ncnn3c2)n1; tested on = MDR1; test = transport activity, inhibitor; endpoint = IC50; result = 10 µM
Structure (SMILES) = C=C[C@@H]1C[C@]1(NC(=O)[C@@H]1C[C@@H]2CN1C(=O)[C@H](C(C)(C)C)NC(=O)O[C@@H]1C[C@H]1CCCCCc1nc3ccc(OC)cc3nc1O2)C(=O)NS(=O)(=O)C1CC1; tested on = human OATP1B1; test = uptake, inhibitor; system = MDCKII-OATP1B1 cells; conditions = with: pitavastatin; endpoint = IC50; result = 0.7 µM
Structure (SMILES) = COc1c(N2C[C@@H]3CCCN[C@@H]3C2)c(F)cc2c(=O)c(C(=O)O)cn(C3CC3)c12; tested on = MATE2-K; test = inhibitor; endpoint = IC50; result = 1 to 8 µM
Structure (SMILES) = C#Cc1cccc(Nc2ncnc3cc(OCCOC)c(OCCOC)cc23)c1; tested on = ABCB1; system = KB-C2; endpoint = IC50; result = 10 µM
Structure (SMILES) = CNC(C)C1CCC(N)C(OC2C(N)CC(N)C(OC3OCC(C)(O)C(NC)C3O)C2O)O1 (centres unmarked); tested on = Escherichia coli; system = clinical isolate RKI-No_97/15; endpoint = MIC; result = > 8 µg/mL
Structure (SMILES) = COc1cc(C2Oc3cc([C@H]4Oc5cc(O)cc(O)c5C(=O)[C@@H]4O)ccc3OC2CO)ccc1O (some centres unmarked); tested on = PXR; test = reporter gene, cell-based reporter; endpoint = IC50; result = 135 µM
Structure (SMILES) = C=C[C@@H]1C[C@]1(NC(=O)[C@@H]1C[C@@H]2CN1C(=O)[C@H](C(C)(C)C)NC(=O)O[C@@H]1C[C@H]1CCCCCc1nc3ccc(OC)cc3nc1O2)C(=O)NS(=O)(=O)C1CC1; tested on = OATP1B1; how to read = literature maximum; endpoint = IC50; result = 1.67 µM
Structure (SMILES) = Cc1nc2ccc(F)cc2n1-c1nc(N)c(F)c(Nc2ccc(C(F)(F)F)cc2)n1; tested on = BCRP (human); test = BCRP transport, inhibitor; system = in vitro; endpoint = IC50; result = 0.013 µM

For quick reference, copied from above:
Structure (SMILES) = Nc1cc(C(F)(F)F)c(-c2nc(N3CCOCC3)nc(N3CCOCC3)n2)cn1; tested on = MARK1 (Homo sapiens, UniProt Q9P0L2); test = enzyme activity; conditions = 10 µM; how to read = relative to: untreated; endpoint = remaining activity; result = 75%
Structure (SMILES) = N[C@@H]1c2cccnc2[C@H](OC(=O)N2CCC(n3c(=O)[nH]c4ncccc43)CC2)CC[C@H]1c1cccc(F)c1F; tested on = CYP2B6 (human); system = human liver microsomes; endpoint = IC50; result = > 40 µM
